Assay results gathered from unrelated publications.
Parts stem from different laboratories: compare values within a part only. Several values in a cell are separate wells, animals, samples, runs or records.
Sequence of UniProt P00519 (whole entry, looked up): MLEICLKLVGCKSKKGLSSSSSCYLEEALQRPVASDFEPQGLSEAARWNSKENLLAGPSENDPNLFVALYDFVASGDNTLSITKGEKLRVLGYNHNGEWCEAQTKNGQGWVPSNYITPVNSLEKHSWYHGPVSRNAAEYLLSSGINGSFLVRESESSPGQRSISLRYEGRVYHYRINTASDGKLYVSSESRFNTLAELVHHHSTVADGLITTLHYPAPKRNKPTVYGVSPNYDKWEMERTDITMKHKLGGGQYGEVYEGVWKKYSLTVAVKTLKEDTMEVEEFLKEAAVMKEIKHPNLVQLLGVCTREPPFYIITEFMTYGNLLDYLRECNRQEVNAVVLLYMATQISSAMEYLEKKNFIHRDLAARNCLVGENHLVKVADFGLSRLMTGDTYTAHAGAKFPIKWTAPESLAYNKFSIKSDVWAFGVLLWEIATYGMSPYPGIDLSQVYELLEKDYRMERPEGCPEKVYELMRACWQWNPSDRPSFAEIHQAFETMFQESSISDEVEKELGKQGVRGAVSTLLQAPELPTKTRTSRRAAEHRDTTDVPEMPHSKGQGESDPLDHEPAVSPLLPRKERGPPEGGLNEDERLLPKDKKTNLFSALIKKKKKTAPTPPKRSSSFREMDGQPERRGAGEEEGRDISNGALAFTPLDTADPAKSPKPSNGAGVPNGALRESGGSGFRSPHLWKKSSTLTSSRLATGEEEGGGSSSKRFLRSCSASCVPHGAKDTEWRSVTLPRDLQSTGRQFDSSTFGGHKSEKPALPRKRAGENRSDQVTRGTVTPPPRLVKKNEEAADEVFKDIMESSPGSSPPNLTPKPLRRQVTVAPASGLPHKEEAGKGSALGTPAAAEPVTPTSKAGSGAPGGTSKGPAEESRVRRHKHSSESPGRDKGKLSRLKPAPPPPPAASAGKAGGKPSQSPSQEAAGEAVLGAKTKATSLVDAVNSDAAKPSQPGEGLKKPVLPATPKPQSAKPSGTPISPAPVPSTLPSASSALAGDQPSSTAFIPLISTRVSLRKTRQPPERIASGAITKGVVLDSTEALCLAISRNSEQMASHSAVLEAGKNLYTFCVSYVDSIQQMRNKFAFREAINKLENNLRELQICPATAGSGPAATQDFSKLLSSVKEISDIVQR
Sequence of UniProt O95819 (whole entry, looked up): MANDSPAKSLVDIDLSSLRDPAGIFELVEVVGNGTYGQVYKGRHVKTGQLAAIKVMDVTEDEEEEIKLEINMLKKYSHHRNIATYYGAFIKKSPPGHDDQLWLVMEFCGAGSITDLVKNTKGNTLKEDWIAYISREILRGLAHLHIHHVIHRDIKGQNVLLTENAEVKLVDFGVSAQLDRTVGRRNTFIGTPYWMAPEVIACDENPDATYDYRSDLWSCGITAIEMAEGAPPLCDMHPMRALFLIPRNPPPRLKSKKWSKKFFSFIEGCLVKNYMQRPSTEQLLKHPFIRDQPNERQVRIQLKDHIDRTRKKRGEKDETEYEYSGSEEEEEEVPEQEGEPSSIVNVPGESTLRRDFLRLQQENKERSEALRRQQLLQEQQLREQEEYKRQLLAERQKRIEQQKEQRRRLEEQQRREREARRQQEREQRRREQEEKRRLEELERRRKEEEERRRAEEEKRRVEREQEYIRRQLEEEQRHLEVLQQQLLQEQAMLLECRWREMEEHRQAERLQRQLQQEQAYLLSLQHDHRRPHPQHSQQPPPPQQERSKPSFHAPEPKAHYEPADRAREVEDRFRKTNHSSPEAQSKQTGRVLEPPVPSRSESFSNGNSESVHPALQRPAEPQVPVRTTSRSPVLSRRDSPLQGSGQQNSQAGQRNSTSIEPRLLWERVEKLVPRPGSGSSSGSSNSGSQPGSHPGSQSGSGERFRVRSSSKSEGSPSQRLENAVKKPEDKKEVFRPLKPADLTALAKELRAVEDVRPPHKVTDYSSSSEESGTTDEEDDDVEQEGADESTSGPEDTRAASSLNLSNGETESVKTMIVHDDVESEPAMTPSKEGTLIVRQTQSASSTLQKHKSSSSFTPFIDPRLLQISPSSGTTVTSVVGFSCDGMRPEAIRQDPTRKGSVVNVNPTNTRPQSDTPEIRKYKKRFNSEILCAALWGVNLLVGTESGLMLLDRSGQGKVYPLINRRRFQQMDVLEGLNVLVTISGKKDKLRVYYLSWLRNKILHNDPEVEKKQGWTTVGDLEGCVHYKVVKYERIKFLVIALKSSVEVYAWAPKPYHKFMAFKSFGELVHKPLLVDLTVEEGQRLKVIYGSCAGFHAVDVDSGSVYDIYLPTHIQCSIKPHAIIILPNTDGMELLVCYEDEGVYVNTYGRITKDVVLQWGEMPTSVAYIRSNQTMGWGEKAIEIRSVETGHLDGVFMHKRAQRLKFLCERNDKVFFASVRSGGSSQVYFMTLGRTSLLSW
Sequence of UniProt P30530 (whole entry, looked up): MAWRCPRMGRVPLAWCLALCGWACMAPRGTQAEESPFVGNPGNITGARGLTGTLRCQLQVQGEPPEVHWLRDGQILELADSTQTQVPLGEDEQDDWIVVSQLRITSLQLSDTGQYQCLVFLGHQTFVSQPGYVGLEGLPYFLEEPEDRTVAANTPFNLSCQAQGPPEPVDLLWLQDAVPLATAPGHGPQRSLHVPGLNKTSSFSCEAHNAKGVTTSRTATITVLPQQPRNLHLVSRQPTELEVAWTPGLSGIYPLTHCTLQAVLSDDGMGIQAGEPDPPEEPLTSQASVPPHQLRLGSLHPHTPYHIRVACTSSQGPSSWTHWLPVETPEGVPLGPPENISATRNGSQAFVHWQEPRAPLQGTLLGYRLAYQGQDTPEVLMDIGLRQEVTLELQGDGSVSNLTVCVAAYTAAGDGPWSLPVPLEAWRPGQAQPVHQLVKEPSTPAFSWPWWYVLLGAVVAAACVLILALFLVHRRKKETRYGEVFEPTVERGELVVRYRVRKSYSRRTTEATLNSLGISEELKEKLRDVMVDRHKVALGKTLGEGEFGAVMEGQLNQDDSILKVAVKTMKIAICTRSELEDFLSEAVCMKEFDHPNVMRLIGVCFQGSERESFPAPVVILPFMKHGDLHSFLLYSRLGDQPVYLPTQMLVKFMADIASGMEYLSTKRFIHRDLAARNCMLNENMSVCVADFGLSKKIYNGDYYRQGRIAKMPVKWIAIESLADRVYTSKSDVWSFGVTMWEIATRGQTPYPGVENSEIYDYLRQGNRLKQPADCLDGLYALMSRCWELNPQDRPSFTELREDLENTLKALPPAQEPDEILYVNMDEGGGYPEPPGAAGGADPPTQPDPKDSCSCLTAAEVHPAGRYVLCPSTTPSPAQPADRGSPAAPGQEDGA
Sequence of UniProt O75385 (whole entry, looked up): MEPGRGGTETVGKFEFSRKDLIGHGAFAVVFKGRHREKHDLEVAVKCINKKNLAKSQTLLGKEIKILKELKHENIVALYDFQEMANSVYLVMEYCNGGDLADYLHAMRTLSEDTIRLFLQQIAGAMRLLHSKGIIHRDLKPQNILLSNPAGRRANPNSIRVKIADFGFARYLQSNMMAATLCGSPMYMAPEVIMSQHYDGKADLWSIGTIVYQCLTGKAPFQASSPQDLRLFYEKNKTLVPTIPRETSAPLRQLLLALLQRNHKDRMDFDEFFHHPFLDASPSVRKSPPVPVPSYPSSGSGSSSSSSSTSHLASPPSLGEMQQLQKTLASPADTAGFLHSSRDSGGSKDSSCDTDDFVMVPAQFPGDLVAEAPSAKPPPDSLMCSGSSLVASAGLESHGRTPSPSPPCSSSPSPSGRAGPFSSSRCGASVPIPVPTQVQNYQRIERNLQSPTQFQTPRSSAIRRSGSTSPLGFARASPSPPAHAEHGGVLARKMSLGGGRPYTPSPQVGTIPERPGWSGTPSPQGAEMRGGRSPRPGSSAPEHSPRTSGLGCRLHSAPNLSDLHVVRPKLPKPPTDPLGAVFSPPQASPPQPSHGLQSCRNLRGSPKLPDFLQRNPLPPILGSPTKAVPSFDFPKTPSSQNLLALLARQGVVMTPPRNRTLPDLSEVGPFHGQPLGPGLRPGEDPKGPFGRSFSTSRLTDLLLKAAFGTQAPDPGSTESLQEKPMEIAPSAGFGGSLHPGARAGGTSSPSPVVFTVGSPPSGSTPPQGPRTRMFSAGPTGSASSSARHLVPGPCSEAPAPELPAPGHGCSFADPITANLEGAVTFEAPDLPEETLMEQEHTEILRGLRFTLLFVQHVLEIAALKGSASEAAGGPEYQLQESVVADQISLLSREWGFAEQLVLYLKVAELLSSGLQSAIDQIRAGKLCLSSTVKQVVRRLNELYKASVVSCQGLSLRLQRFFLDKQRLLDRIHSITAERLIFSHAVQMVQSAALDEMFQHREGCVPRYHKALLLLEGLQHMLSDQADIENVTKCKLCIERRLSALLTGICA
Sequence of UniProt O75676 (whole entry, looked up): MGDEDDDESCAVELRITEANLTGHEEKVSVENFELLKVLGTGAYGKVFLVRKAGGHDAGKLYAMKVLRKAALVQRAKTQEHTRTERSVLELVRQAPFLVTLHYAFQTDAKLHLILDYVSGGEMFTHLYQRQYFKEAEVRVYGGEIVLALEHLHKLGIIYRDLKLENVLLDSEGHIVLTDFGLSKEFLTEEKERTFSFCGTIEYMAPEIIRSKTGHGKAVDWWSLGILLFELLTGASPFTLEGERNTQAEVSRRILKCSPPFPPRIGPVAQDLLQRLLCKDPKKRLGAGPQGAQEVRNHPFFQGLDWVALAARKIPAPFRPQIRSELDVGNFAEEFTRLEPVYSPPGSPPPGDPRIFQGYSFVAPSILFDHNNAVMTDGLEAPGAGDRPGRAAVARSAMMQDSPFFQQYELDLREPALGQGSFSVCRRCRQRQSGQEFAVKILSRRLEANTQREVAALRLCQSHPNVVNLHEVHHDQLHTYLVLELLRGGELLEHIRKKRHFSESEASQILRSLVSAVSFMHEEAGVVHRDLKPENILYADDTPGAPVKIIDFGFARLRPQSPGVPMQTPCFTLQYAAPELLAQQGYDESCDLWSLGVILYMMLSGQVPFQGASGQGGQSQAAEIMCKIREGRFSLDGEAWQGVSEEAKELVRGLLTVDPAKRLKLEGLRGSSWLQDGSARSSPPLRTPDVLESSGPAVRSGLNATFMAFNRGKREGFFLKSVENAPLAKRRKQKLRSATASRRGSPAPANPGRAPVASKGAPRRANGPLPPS

Set 1
Structure (SMILES): O=C(O)[C@@H]1[C@@H](Cn2nnc3ccccc3c2=O)CC[C@H]1C(=O)c1ccc(OCCC2CCOCC2)cc1
Technique: competition with immobilised ligand
Concentration: 1 µM
target	test	remaining binding [%]
Tyrosine-protein kinase Lyn (LYN, Homo sapiens, UniProt P07948)	cell-free assay	97
Phosphatidylinositol 4,5-bisphosphate 3-kinase catalytic subunit alpha isoform (PIK3CA, Homo sapiens, UniProt P42336, C420R)	cell-free assay	100
Cyclin-G-associated kinase (GAK, Homo sapiens, UniProt O14976)	cell-free assay	91
Cyclin-dependent kinase 9 (CDK9, Homo sapiens, UniProt P50750)	cell-free assay	100
Mitogen-activated protein kinase kinase kinase 14 (MAP3K14, Homo sapiens, UniProt Q99558)	cell-free assay	100
Mitogen-activated protein kinase kinase kinase kinase 4 (MAP4K4, Homo sapiens, UniProt O95819)	cell-free assay	93
Tyrosine-protein kinase receptor UFO (AXL, Homo sapiens, UniProt P30530)	cell-free assay	100
Ribosomal protein S6 kinase alpha-4, N-terminal kinase domain (RPS6KA4, Homo sapiens, UniProt O75676)	cell-free assay	100
Tyrosine-protein kinase ABL1, phosphorylated (ABL1, Homo sapiens, UniProt P00519)	cell-free assay	79
Cyclin-dependent kinase-like 5 (CDKL5, Homo sapiens, UniProt O76039)	binding	96
Leukocyte tyrosine kinase receptor (LTK, Homo sapiens, UniProt P29376)	cell-free assay	100
Serine/threonine-protein kinase TNNI3K (TNNI3K, Homo sapiens, UniProt Q59H18)	cell-free assay	94
Serine/threonine-protein kinase ULK1 (ULK1, Homo sapiens, UniProt O75385)	cell-free assay	100
Serine/threonine-protein kinase DCLK1 (DCLK1, Homo sapiens, UniProt O15075)	cell-free assay	100
Cyclin-dependent kinase 11A (CDK11A, Homo sapiens, UniProt Q9UQ88)	binding	91
Epithelial discoidin domain-containing receptor 1 (DDR1, Homo sapiens, UniProt Q08345)	cell-free assay	100

Set 2
Cell line: mouse MPNST tumor cells
Technique: high-content nuclear imaging
Refers to: cell number
Concentration: 10 µM
Time: 12 h
Notes: mean of 2 replicates
Reference: plate mean
Direction: higher = more cells
Compound	nuclei count
FC(F)(F)c1ccc(CNc2ccc(Cc3c[nH]c4ncccc34)cn2)cc1	1.49 z-score
COc1ccc(-c2cc(=S)ss2)cc1	0.459 z-score
CN[C@H]1CC[C@@H](c2ccc(Cl)c(Cl)c2)c2ccccc21	0.305 z-score and -4.38 z-score
CC[C@H]1OC(=O)[C@H](C)[C@@H](O[C@H]2C[C@@](C)(OC)[C@@H](O)[C@H](C)O2)[C@H](C)[C@@H](O[C@@H]2O[C@H](C)C[C@H](N(C)C)[C@H]2O)[C@](C)(O)C[C@@H](C)[C@@H]2N[C@@H](COCCOC)O[C@H]([C@H]2C)[C@]1(C)O	1.77 z-score
CC1(C)S[C@@H]2[C@H](NC(=O)[C@H](N)c3ccc(O)cc3)C(=O)N2[C@H]1C(=O)O	2 z-score
O=C(CC12CC3CC(CC(C3)C1)C2)Nc1cccc2nc(NCCNCCO)ccc12	4.31 z-score

Set 3
Observed: AlphaScreen signal
Technique: AlphaScreen counter screen
Matrix: His6 peptide without bromodomain
Concentration: 50 µM
Notes: assay interference check
SMILES	inhibition [%]
COc1cccc(-c2nc(NCCCN(C)C)c3ccccc3n2)c1O	51.8
CC(=O)Nc1ccc(Nc2nc(-c3c(C)nc4ccccn34)cs2)cc1	37.2
Oc1cc(O)cc(/C=C/c2ccc(O)c(O)c2)c1	29.4
N#CCNC(=O)c1ccc(-c2ccnc(Nc3ccc(N4CCOCC4)cc3)n2)cc1	20.2

Set 4
Cell line: A-375
Concentration: 100 µM
Time: 36 h
SMILES	viability
C=CC(=O)Nc1cccc(Nc2nc(Nc3ccc(N4CCN(C(C)=O)CC4)cc3OC)ncc2C(F)(F)F)c1	11.8%
CCOc1ccccc1OCCN[C@H](C)Cc1ccc(OC)c(S(N)(=O)=O)c1	99.2%
COc1nc(C)nc(Cl)c1N=C1NCCN1	105%
CC[C@]1(O)C[C@H]2CN(CCc3c([nH]c4ccccc34)[C@@](C(=O)OC)(c3cc4c(cc3OC)N(C=O)[C@H]3[C@@](O)(C(=O)OC)[C@H](OC(C)=O)[C@]5(CC)C=CCN6CC[C@]43[C@@H]65)C2)C1	18.4%

Set 5
Cell line: Huh-7
Concentration: 10 µM
Time: 24 h
Structure (SMILES)	viability [%]
CCn1cc(C(=O)O)c(=O)c2cc(F)c(N3CCNCC3)nc21	102
CO[C@]12C[C@@H](COC(=O)c3cncc(Br)c3)CN(C)[C@@H]1Cc1cn(C)c3cccc2c13	97.4
NC(=O)N1c2ccccc2CC(=O)c2ccccc21	101
O=C(Oc1cccc2cccnc12)c1ccccc1	64.1
